Assay results gathered from unrelated publications.
Parts stem from different laboratories: compare values within a part only. Changes are numbered by the printed parent chain.

Sample 1
Target: Prothrombin, mature alpha-thrombin (F2, Homo sapiens, UniProt P00734)
Method: aptamer microarray, sandwich
Form: DNA with 2'F-ANA
Medium: in vitro
Tested at: 200 nM
Notes: whole 15-mer aptamer, many near background
Together with: Cy3 exosite-II aptamer, 400 nM
Reading: higher = stronger binding
Oligonucleotide: GGTTGGTGTGGTTGG
Modification	mean fluorescence intensity
2'F-ANA at 2 5 6 7 8 9 11 12 13	106 a.u.
2'F-ANA at 2 8 9 10 12 14 15	92.8 a.u.
2'F-ANA at 2 3 5 7 8 10 11 12 14 15	343 a.u.
2'F-ANA at 3 4 5 8 9 11 13 14 15	51 a.u.
2'F-ANA at 1 2 5 7 9 10 13 15	47.1 a.u.
2'F-ANA at 1 3 5 8 9 10 13	54.1 a.u.
2'F-ANA at 2 3 4 5 6 7 8 11 13 15	71.4 a.u.
2'F-ANA at 2 3 4 6 8 9 10 14 15	136 a.u.
2'F-ANA at 3 4 9 10 13 15	241 a.u.
2'F-ANA at 1 3 5 8 10 11 14 15	48.3 a.u.
2'F-ANA at 1 4 10 12 13 14	48.2 a.u.

Sample 2
Target: Ras GTPase-activating protein-binding protein 1, RRM domain (G3BP1, Homo sapiens, UniProt Q13283)
UniProt Q13283, sequence (whole entry, looked up): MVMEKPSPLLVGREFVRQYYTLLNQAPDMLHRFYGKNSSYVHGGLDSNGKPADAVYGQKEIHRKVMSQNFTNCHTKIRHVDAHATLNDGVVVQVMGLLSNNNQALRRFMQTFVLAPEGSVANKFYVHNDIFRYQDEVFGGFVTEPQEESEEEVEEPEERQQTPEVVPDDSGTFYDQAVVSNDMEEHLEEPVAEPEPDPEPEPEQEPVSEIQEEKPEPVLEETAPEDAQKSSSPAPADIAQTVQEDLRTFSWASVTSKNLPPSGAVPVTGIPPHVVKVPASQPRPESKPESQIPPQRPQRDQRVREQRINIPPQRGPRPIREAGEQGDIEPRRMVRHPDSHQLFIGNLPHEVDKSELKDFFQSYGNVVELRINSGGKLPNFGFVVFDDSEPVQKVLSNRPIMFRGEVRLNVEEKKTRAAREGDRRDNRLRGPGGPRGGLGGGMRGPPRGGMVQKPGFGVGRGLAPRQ
Method: RNA Bind-n-Seq
Form: RNA
Medium: in vitro
Tested at: 1 µM
Notes: whole 134-nt RNA, ends assumed
Together with: 150 mM KCl
Baseline: input library
Reading: higher = stronger binding
Constant ends, left off below: GGGAGUUCUACAGUCCGACGAUC … UGGAAUUCUCGGGUGUCAAGG
Oligonucleotide	log2 enrichment
CCUGUGCUACACAUCGUAUGUACCGAAUCGGGGUUUUUUGGGGUUUUUUGGGUUUUUUGGAAAGUAUUAUGUUACGCCGUUCGGAUCUGC	-0.165
UCCUGUGCUACACAUCGUAUGUACCGAAUCGGGGCCCCCCGGCCCCCCGGCCCCCCGGGAAAGUAUUAUGUUACGCCGUUCGGAUCUGCA	-0.41
AUUUCUCAGUUGAAGGAUGCUUACACUCUUGUCCAUCUAGACCUCAAUUACUGUUUUUCAGGAAUGUCUGAUCACAGAUACGGGGAUGGU	-0.229
AAGUCCUGUGCUACACAUCGUAUGUACCGAAUCGGAAAGGUUUUUUUGGUUUUUGGAAAGUAUUAUGUUACGCCGUUCGGAUCUGCACUU	-0.469
GUCCUGUGCUACACAUCGUAUGUACCGAAUCGGGGUUUUGGGGUUUUGGGGUUUUGGGAAAGUAUUAUGUUACGCCGUUCGGAUCUGCAC	0.266
GUCCUGUGCUACACAUCGUAUGUACCGAAUCGGGGAAAAAGGGGAGGGGUUUUUGGGGAAAGUAUUAUGUUACGCCGUUCGGAUCUGCAC	0.9
CCUGUGCUACACAUCGUAUGUACCGAAUCGGGGUUUUUUGGGUUUUUUGGGUUUUUUGGGAAAGUAUUAUGUUACGCCGUUCGGAUCUGC	-0.236
UGGGAGGUGGAUUUUGUUUAUUUUUUUAGCUCAUUUCCAGGGGUGGGAAUUUUUUUUUAGUAUGUGUCAUGAAUAAAGUUGUUUUUGAAA	1.44
UCAUGUAUAGACAACGCCAUUAUUGACGAGAUCACUCCCAAGCGGAUUGGAGAUUGUCCCAAUAUUUAGACCUAUAGCAAGGCCUUGGGA	0.0282

Sample 3
Target: CCND2, cyclin fold, Cln2 fusion (human)
Method: yeast growth competition, sequencing
Medium: yeast
Notes: weak parent motif
Baseline: not given
Reading: higher = stronger binding
Starting sequence: WEE1 docking peptide (human); HKTFRKLRLFDTP
Variant	normalised enrichment score
R5W	-0.292
K6Y	-0.137
R8Q	0.444
R5L	0.616
F10H	0.167
L7T	0.138
R8T	0.0987
H1S	0.936

Single results of other studies
Substance	target	assay	test system	setting	scale	quantity	value
PhoQ, residues 284 288 289 292 302 303 DDMDFR	PhoP, residues 12 14 15 18 19 TPLRH (Escherichia coli, UniProt P23836)	Sort-seq, measured: YFP reporter	E. coli	PhoQ-PhoP variant library, together with: 10 µM Mg2+	baseline: high Mg2+ state, higher = stronger signaling	fold induction	0.892
